Measurements pooled from the literature.
A part holds a random share of what one study measured.
Sequence of UniProt Q9P1W9 (whole entry, looked up): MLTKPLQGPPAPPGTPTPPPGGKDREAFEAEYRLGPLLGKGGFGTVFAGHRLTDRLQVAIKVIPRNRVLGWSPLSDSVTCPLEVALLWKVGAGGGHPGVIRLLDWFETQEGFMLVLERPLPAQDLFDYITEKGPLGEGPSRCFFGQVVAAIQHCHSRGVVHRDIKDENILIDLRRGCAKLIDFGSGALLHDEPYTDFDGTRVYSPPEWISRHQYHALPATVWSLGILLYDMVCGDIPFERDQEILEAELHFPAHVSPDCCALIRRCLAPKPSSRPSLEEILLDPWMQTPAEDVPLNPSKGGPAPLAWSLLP
Sequence of UniProt P42685 (whole entry, looked up): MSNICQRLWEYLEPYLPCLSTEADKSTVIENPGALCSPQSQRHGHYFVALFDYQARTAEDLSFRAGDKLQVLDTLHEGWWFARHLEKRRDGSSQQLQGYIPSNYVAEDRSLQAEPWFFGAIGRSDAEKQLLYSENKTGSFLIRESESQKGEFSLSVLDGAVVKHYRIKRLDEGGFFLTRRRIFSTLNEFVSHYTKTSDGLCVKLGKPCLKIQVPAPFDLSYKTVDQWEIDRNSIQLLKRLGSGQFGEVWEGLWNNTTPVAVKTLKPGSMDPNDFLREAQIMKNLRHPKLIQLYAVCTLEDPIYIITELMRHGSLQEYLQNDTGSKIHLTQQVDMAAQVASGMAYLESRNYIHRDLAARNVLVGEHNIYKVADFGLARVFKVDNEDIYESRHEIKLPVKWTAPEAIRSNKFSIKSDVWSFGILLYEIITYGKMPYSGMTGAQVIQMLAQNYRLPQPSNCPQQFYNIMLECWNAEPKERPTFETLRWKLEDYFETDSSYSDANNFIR
Sequence of UniProt Q96PY6 (whole entry, looked up): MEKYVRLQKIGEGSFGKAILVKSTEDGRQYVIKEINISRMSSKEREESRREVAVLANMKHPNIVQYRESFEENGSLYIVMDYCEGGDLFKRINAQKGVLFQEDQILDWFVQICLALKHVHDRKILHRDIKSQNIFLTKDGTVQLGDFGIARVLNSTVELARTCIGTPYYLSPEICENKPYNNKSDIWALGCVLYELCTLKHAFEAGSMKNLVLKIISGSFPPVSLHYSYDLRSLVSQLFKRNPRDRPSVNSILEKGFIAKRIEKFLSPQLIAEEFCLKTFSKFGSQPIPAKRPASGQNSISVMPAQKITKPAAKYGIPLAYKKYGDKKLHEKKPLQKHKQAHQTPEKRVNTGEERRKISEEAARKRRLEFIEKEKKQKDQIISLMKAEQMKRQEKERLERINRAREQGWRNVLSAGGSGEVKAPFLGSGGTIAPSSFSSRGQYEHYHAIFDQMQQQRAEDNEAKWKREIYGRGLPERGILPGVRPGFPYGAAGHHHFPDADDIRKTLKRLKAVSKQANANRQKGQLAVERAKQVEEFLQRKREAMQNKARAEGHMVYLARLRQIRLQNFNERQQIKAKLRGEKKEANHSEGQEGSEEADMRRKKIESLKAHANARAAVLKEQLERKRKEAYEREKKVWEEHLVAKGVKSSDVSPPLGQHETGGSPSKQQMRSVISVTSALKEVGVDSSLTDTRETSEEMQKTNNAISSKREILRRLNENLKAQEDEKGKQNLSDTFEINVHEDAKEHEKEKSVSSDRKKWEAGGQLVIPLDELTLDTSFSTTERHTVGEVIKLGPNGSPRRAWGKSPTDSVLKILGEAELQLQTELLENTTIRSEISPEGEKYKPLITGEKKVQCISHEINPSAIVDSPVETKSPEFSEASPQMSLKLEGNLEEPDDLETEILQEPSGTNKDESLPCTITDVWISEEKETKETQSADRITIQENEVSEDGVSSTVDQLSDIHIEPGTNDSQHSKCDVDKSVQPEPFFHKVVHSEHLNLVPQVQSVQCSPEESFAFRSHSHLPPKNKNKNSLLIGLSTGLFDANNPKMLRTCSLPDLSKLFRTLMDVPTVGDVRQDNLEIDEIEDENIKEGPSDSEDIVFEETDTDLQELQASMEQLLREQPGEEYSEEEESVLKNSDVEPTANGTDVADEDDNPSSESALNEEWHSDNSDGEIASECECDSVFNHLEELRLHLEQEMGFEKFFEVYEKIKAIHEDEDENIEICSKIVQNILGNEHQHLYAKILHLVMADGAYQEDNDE
Sequence of UniProt Q2M2I8 (whole entry, looked up): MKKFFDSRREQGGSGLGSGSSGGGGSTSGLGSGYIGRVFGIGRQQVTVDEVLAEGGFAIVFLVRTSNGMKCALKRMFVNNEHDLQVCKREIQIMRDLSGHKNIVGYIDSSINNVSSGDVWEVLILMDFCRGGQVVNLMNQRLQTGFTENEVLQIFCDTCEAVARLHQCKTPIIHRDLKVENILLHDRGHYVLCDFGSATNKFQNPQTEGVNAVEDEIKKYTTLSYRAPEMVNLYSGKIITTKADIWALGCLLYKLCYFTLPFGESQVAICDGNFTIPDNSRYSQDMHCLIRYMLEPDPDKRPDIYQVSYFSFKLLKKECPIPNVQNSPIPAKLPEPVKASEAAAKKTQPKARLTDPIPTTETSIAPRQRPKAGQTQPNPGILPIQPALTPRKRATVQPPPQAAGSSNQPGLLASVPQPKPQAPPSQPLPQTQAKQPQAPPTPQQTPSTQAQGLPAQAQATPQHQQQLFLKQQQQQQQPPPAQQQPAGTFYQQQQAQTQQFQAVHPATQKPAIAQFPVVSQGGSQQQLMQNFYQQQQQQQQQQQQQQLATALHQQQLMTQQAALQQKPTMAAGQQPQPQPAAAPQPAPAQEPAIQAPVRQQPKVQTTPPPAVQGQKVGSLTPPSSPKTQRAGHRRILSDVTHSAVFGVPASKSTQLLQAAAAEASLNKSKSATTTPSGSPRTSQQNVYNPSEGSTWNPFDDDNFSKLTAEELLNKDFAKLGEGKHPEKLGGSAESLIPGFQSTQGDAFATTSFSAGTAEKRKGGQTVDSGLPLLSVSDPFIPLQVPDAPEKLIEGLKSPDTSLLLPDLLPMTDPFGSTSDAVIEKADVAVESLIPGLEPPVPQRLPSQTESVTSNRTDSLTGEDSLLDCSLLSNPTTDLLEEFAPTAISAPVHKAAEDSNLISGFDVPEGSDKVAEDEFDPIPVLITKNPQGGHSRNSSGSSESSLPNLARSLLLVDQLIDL
Sequence of UniProt Q13163 (whole entry, looked up): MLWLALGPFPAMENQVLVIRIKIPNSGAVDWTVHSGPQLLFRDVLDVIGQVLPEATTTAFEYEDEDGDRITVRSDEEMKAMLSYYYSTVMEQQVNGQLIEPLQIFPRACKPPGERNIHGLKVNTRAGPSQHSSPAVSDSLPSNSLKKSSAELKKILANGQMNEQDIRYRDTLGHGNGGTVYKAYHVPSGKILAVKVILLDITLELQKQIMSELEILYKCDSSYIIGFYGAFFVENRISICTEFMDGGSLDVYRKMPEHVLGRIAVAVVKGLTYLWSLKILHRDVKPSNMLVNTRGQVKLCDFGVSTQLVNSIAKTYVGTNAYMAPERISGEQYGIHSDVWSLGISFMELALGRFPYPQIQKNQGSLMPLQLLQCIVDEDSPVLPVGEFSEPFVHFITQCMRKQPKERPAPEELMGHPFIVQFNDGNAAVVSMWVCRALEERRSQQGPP
Sequence of UniProt P04049 (whole entry, looked up): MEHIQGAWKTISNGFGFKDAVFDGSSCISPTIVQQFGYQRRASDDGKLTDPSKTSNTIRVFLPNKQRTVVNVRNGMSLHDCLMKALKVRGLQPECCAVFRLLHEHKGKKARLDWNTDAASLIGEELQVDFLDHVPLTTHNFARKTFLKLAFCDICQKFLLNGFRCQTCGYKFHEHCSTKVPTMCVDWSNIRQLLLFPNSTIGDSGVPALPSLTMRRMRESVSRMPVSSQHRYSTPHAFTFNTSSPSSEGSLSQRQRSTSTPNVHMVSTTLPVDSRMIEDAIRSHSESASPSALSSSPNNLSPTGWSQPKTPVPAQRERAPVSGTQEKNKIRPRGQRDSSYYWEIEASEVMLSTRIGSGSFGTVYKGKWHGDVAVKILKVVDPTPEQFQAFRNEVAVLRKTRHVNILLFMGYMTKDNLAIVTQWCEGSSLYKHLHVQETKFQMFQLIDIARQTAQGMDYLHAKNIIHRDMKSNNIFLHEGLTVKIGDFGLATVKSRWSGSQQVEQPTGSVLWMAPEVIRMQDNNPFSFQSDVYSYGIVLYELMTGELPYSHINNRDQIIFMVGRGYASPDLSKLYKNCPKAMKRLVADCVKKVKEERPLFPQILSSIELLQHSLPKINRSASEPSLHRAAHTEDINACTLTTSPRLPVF
Sequence of UniProt P53779 (whole entry, looked up): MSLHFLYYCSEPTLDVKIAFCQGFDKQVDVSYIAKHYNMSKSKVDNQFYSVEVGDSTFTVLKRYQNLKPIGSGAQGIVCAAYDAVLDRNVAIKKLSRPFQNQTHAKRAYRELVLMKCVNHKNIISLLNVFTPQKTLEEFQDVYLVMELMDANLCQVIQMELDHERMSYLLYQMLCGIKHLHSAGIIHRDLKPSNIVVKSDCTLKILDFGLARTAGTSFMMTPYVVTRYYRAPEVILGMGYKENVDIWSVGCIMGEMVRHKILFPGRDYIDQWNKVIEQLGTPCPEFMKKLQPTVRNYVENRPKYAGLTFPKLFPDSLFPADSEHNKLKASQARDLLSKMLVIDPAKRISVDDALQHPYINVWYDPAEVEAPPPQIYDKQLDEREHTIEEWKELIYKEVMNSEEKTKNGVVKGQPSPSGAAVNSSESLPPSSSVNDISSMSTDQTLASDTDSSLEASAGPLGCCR
Sequence of UniProt P0C264 (whole entry, looked up): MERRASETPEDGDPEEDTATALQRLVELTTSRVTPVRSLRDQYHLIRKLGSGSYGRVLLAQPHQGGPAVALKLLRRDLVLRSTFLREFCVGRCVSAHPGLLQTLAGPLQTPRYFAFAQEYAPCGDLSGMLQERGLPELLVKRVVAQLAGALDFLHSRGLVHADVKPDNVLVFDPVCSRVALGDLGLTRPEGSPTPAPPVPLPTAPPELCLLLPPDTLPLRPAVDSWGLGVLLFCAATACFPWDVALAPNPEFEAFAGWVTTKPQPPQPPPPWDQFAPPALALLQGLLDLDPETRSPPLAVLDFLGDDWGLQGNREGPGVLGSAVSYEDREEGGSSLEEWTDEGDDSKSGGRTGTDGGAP

Set 1 — effect on: enzyme activity; mode: inhibitor; concentration: 1 µM
Compound: CO[C@@H]1[C@H](N(C)C(=O)c2ccccc2)C[C@H]2O[C@]1(C)n1c3ccccc3c3c4c(c5c6ccccc6n2c5c31)C(=O)NC4
| target | inhibition |
| --- | --- |
| Uncharacterized serine/threonine-protein kinase SBK3 (SBK3, Homo sapiens, UniProt P0C264) | 0% |
| Myosin light chain kinase 2, skeletal/cardiac muscle (MYLK2, Homo sapiens, UniProt Q9H1R3) | 12% |
| STE20/SPS1-related proline-alanine-rich protein kinase (STK39, Homo sapiens, UniProt Q9UEW8) | 0% |
| Epidermal growth factor receptor (EGFR, Homo sapiens, UniProt P00533, L861Q) | 40% |
| Tyrosine-protein kinase FRK (FRK, Homo sapiens, UniProt P42685) | 31% |
| Receptor-interacting serine/threonine-protein kinase 1 (RIPK1, Homo sapiens, UniProt Q13546) | 0% |
| 5'-AMP-activated protein kinase catalytic subunit alpha-2 (PRKAA2, Homo sapiens, UniProt P54646) | 79% |
| ALK tyrosine kinase receptor (ALK, Homo sapiens, UniProt Q9UM73, C1156Y) | 49% |
| Myosin-IIIa (MYO3A, Homo sapiens, UniProt Q8NEV4) | 7% |
| Dual specificity mitogen-activated protein kinase kinase 5 (MAP2K5, Homo sapiens, UniProt Q13163) | 11% |
| Tyrosine-protein kinase Lck (LCK, Homo sapiens, UniProt P06239) | 89% |
| Dual specificity mitogen-activated protein kinase kinase 6 (MAP2K6, Homo sapiens, UniProt P52564) | 0% |
| Serine/threonine-protein kinase pim-2 (PIM2, Homo sapiens, UniProt Q9P1W9) | 0% |

Set 2 — effect on: cell-free assay; method: competition with immobilised ligand; concentration: 1 µM
Structure (SMILES): C[C@H](NC(=O)c1cnc2n1[C@](C)(Cc1ccc(C#N)cc1)C(=O)N2c1cc(Cl)c(F)c(Cl)c1)C(=O)NC1(c2ccccn2)CC1
| target | remaining binding [%] |
| --- | --- |
| Atypical kinase COQ8B, mitochondrial (COQ8B, Homo sapiens, UniProt Q96D53) | 100 |
| Ribosomal protein S6 kinase alpha-1, C-terminal kinase domain (RPS6KA1, Homo sapiens, UniProt Q15418) | 100 |
| Fibroblast growth factor receptor 3 (FGFR3, Homo sapiens, UniProt P22607, G697C) | 100 |
| Calcium/calmodulin-dependent protein kinase kinase 1 (CAMKK1, Homo sapiens, UniProt Q8N5S9) | 100 |
| Mitogen-activated protein kinase 10 (MAPK10, Homo sapiens, UniProt P53779) | 91 |
| Serine/threonine-protein kinase Nek1 (NEK1, Homo sapiens, UniProt Q96PY6) | 59 |
| Proto-oncogene tyrosine-protein kinase receptor Ret (RET, Homo sapiens, UniProt P07949) | 100 |
| Serine/threonine-protein kinase pim-2 (PIM2, Homo sapiens, UniProt Q9P1W9) | 100 |
| Serine/threonine-protein kinase OSR1 (OXSR1, Homo sapiens, UniProt O95747) | 94 |
| Phosphorylase b kinase gamma catalytic chain, skeletal muscle/heart isoform (PHKG1, Homo sapiens, UniProt Q16816) | 100 |
| Tyrosine-protein kinase ABL1, phosphorylated (ABL1, Homo sapiens, UniProt P00519, T315I) | 100 |
| Proto-oncogene tyrosine-protein kinase ROS (ROS1, Homo sapiens, UniProt P08922) | 100 |
| Cyclin-dependent kinase 16 (CDK16, Homo sapiens, UniProt Q00536) | 100 |

Set 3 — effect on: enzyme activity; mode: inhibitor; concentration: 0.5 µM; relative to: control
Target: Protein kinase C epsilon type (PRKCE, Homo sapiens, UniProt Q02156)
Target sequence (Q02156 1-737): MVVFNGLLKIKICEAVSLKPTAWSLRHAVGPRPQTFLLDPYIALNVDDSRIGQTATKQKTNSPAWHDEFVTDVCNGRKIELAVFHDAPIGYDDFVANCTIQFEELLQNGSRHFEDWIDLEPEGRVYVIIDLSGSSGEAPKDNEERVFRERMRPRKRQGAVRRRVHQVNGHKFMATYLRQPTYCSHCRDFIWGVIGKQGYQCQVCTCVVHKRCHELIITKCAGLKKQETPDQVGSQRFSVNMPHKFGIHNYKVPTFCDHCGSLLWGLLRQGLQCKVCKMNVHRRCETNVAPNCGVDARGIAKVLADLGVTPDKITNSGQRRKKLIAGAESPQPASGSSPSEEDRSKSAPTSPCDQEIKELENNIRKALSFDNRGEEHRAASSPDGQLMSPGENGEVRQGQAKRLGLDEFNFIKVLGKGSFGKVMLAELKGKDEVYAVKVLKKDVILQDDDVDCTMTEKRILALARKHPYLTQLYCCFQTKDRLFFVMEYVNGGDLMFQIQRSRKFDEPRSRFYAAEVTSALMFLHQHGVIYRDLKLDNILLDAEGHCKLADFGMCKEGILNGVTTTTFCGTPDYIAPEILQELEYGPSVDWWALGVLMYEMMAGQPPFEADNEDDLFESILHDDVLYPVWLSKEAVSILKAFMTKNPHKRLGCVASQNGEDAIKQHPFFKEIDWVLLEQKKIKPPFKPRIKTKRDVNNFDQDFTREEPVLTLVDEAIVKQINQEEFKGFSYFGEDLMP
| SMILES | remaining activity [%] |
| --- | --- |
| Ic1cccc(CSc2nnc(-c3ccncc3)o2)c1 | 86.5 |
| CCN(CC)CCNC(=O)c1c(C)[nH]c(/C=C2\C(=O)Nc3ccc(Cl)cc32)c1C | 102 |
| CCN(CC)C(=O)c1ccc(Nc2nc(OCC3CCCCC3)c3[nH]cnc3n2)cc1 | 76.6 |
| c1ccc(-c2[nH]ncc2-c2ccnc3ccccc23)nc1 | 101 |
| Cn1nc2c3c(cccc31)C(=O)c1ccccc1-2 | 95.7 |
| COc1cc2ncnc(Nc3ccc(O)c(Br)c3)c2cc1OC | 93.2 |
| Cc1nc2cc3nc(-c4cccs4)cnc3cc2n1C | 108 |
| O=C(Nc1cccc(Nc2nccc(Nc3cccc(C(F)(F)F)c3)n2)c1)C1CC1 | 106 |
| COc1cc2c(cc1OC)-c1[nH]nc(Nc3cccc(F)c3)c1C2 | 87.9 |
| N#C/C(=C\c1ccc(O)c(O)c1)C(=O)NCc1ccccc1 | 100 |
| CCOc1nc(NC(=O)Cc2cc(OC)ccc2OC)cc(N)c1C#N | 98.8 |
| c1ccc(-c2cnc(Nc3ccc(OCCN4CCCC4)cc3)s2)cc1 | 90.5 |

Set 4 — concentration: 1 µM
SMILES: Cc1ccc(NC(=O)c2ccnc(C(F)(F)F)c2)cc1-c1cc(OCCO)nc(N2CCOCC2)c1
| target | method | measured | setting | relative to | remaining binding |
| --- | --- | --- | --- | --- | --- |
| Serine/threonine-protein kinase 33 (STK33, Homo sapiens, UniProt Q9BYT3) | competitive binding panel | – | – | vehicle | 97% |
| RAF proto-oncogene serine/threonine-protein kinase (RAF1, Homo sapiens, UniProt P04049) | competitive binding panel | – | – | vehicle | 1.2% |
| AP2-associated protein kinase 1 (AAK1, Homo sapiens, UniProt Q2M2I8) | competitive binding panel | – | – | vehicle | 78% |
| Tyrosine-protein kinase Fer (FER, Homo sapiens, UniProt P16591) | competitive binding panel | – | – | vehicle | 89% |
| Serine/threonine-protein kinase 38 (STK38, Homo sapiens, UniProt Q15208) | competitive binding panel | NDR1 | – | vehicle | 97% |
| Cyclin-dependent kinase 15 (CDK15, Homo sapiens, UniProt Q96Q40) | competitive binding | – | PFTAIRE2 | – | 100% |
| Serine/threonine-protein kinase pim-2 (PIM2, Homo sapiens, UniProt Q9P1W9) | competitive binding panel | – | – | vehicle | 82% |
| Inhibitor of nuclear factor kappa-B kinase subunit beta (IKBKB, Homo sapiens, UniProt O14920) | competitive binding | – | IKK-beta | – | 97% |
| Tyrosine-protein kinase FRK (FRK, Homo sapiens, UniProt P42685) | competitive binding panel | – | – | vehicle | 55% |
| Serine/threonine-protein kinase 26 (STK26, Homo sapiens, UniProt Q9P289) | competitive binding panel | MST4 | – | vehicle | 85% |
| Myotonin-protein kinase (DMPK, Homo sapiens, UniProt Q09013) | competitive binding panel | – | – | vehicle | 100% |
| Hormonally up-regulated neu tumor-associated kinase (HUNK, Homo sapiens, UniProt P57058) | competitive binding panel | – | – | vehicle | 100% |

A few entries again (set 3):
| SMILES | remaining activity [%] |
| --- | --- |
| c1ccc(-c2[nH]ncc2-c2ccnc3ccccc23)nc1 | 101 |
| Cn1nc2c3c(cccc31)C(=O)c1ccccc1-2 | 95.7 |
| COc1cc2ncnc(Nc3ccc(O)c(Br)c3)c2cc1OC | 93.2 |
| Cc1nc2cc3nc(-c4cccs4)cnc3cc2n1C | 108 |
